# Experimental data collected from several papers.
# Protocols differ between the studies behind these lines. ± gives the spread as reported.
# Cell line: MCF7
SMILES,observed,technique,medium,time,notes,together with,IC50
COc1ccc(C=C(C#N)C(=O)Nc2nnc(NC(=O)c3ccccc3)s2)cc1,cell growth or viability,MTT,,48 h,,,< 10 µM
Fc1ccc(SSc2ccc(F)cc2)cc1,cell growth or viability,SRB,,,,,> 10 µM
N#Cc1c(-c2ccc(Cl)cc2)c2c(=O)[nH]c(-c3ccccc3)nc2n(C2CCCCC2)c1=O,cell growth or viability,MTT,,,,,≥ 50 µM
CC/C(=C(\c1ccccc1)c1ccc(OCCN(C)C(=O)CCCCCCOc2ccc3[nH]cc(CCNC(C)=O)c3c2)cc1)c1ccccc1,cell survival,MTT,,day 9,"dosed days 2, 4, 7",,55 µM
CCOC(=O)C(C(C)=O)=C1Sc2nc3ccc(S(=O)(=O)N4CCCC4)cc3nc2S1,cell growth,,,24 h,,,≤ 8.78 µM
N#CC(C(=O)Nc1nnc(NC(=O)c2ccccc2)s1)=C1SCCN1c1ccccc1,cell growth or viability,MTT,,48 h,,,36.2 µM
COc1ccc(-n2c(SCC(=O)NNC(=O)Nc3ccc(Cl)cc3)nc3ccccc3c2=O)cc1,cell growth or viability,MTT,,,,,55.5 µM
NCCCCCNc1n[n+]([O-])c2ccccc2[n+]1[O-],cytotoxicity,MTT,10% FBS medium,6 h + 18 h,hypoxia 3% O2,,> 76 µM
CCN1CCC2(CC1)C/C(=N\N=C\c1ccc(N(C)C)cc1)c1ccccc1O2,cell growth or viability,MTT,,48 h,,,80 µM
C=CCc1ccc(O)c(-c2ccc(O)c(CC=C)c2)c1,cell proliferation,MTS,,72 h,,10 µM BLM,2.51 µM
CC(=O)c1nn(-c2ccc(Cl)cc2[N+](=O)[O-])/c(=N/N=C(\C)c2ccc(NC(=O)c3cccnc3)cc2)s1,cytotoxicity,MTT,,24 h,,,10.4 ± 0.8 µM
O=S(=O)(Sc1ccccc1Br)c1ccccc1Br,cell growth,sulforhodamine B,,,,,> 10 µM
NCCNc1n[n+]([O-])c2ccccc2[n+]1[O-],cytotoxicity,MTT,,24 h,normoxia,,68 ± 2.2 µM
O=C(c1ccc2ccccc2c1)c1cn(-c2ccccc2)nc1C1=Nn2cnnc2SC1,cell growth or viability,MTT,,48 h,,,6.24 µM
CC1(C)CC[C@]2(C(=O)O)CC[C@]3(C)C(=CC[C@@H]4[C@@]5(C)CC[C@H](O)C(C)(C)[C@@H]5CC[C@]43C)[C@@H]2C1,cell growth or viability,resazurin,,96 h,,,11 µg/mL
Cc1ccc(NC(=O)NNC(=O)CSc2nc3ccccc3c(=O)n2-c2ccc(C)cc2)cc1,cell growth or viability,MTT,,,,,66 µM
O=C(/C=C/c1ccc(O)cc1)CC(=O)/C=C/c1ccc(O)cc1,cell growth or viability,MTT,,48 h,,,28.2 µg/mL
Cn1nnc2c(C(N)=O)ncn2c1=O,cell proliferation,MTS,,24 h,,10 µM HNL,200 µM
COc1ccc(-n2c(SCC(=O)NNC(=O)Nc3ccc(C)cc3)nc3ccccc3c2=O)cc1,cell growth or viability,MTT,,,,,48.7 µM
CN(C)C/C=C/C(=O)Nc1cc2c(Nc3ccc(F)c(Cl)c3)ncnc2cc1O[C@H]1CCOC1,cell growth or viability,MTT,,72 h,,,11.6 µM
Clc1ccccc1SSc1ccccc1Cl,cell growth or viability,SRB,,,,,> 10 µM
COc1ccc(-c2cc(-c3ccc(Cl)cc3)c3c(=O)[nH]c(=O)[nH]c3n2)cc1,cell growth or viability,MTT,,48 h,,,< 5 µM
Cc1nc2ccccc2nc1SCC(=O)Nc1ccc(C(=O)Nc2ccc([N+](=O)[O-])cc2O)cc1,cell growth or viability,MTT,,,,,61.5 µM
N#CC(C(=O)NN=C1C(=O)Nc2ccccc21)=C1Sc2nc3ccc(S(=O)(=O)N4CCCC4)cc3nc2S1,cell growth,,,24 h,,,24.3 ± 1.8 µM
N#CC(=Cc1ccc(Cl)cc1)C(=O)Nc1nnc(NC(=O)c2ccccc2)s1,cell growth or viability,MTT,,48 h,,,17.7 µM
NCCCCCCNc1n[n+]([O-])c2ccccc2[n+]1[O-],cytotoxicity,MTT,,24 h,normoxia,,150 ± 26 µM
CCCCCCCCCCCCCC(=O)OC[C@H](COP(=O)([O-])OCC[N+](C)(C)C)OC(=O)CCCCCCCCCCCCC,cell viability,MTT,,72 h,,,> 250 µM
Cc1cc(C)c(C#N)c(OCC(=O)N2CCOCC2)n1,cell viability,MTT,,48 h,,,1.62 µM
Brc1ccc(SSc2ccc(Br)cc2)cc1,cell growth or viability,SRB,,,,,> 10 µM
[O-][n+]1nc(NCCCCNc2n[n+]([O-])c3ccccc3[n+]2[O-])nc2ccccc21,cytotoxicity,MTT,,24 h,normoxia,,> 30 µM
N#Cc1c(-c2ccc(Cl)cc2)c2c(=O)[nH]c(=S)[nH]c2n(C2CCCCC2)c1=O,cell growth or viability,MTT,,,,,1.4 µM
C=CCc1ccc(OCc2nn(CN3CCOCC3)c(=S)o2)c(OC)c1,cell growth or viability,MTT,,72 h,,,1.71 µM
COc1ccc(-n2c(SCC(=O)NNC(=O)NCc3ccccc3)nc3ccccc3c2=O)cc1,cell growth or viability,MTT,,,,,82.8 µM
NCCCNc1n[n+]([O-])c2ccccc2[n+]1[O-],cytotoxicity,MTT,10% FBS medium,6 h + 18 h,hypoxia 3% O2,,65.8 ± 2.4 µM
CCCCNC(=O)c1ccc(NC(=O)CSc2nc3ccccc3nc2C)cc1,cell growth or viability,MTT,,,,,62.1 µM
NCCCn1c2c(c3ccc(N)cc3c1=O)C(=O)c1ccccc1-2,cell growth or viability,SRB,,24 h,,,1.09 µM
N#CC(=Cc1ccc([N+](=O)[O-])cc1)C(=O)Nc1nnc(NC(=O)c2ccccc2)s1,cell growth or viability,MTT,,48 h,,,45.1 µM
CCOC(=O)Cn1c(-c2ccc(Cl)cc2)cc(-c2ccc(O)c(OC)c2)c(C#N)c1=O,cell growth or viability,MTT,,,,,4.15 µM
CCC(=O)O[C@H]1[C@H](C)O[C@@H](O[C@H]2[C@H](N(C)C)[C@@H](O)[C@H](O[C@H]3[C@@H](CC=O)C[C@@H](C)[C@@H](O)/C=C/C=C/C[C@@H](C)OC(=O)C[C@@H](O)[C@@H]3OC)O[C@@H]2C)C[C@@]1(C)O,cell growth or viability,crystal violet,,72 h,,,> 50 µM
Fc1cccc(SSc2cccc(F)c2)c1,cell growth or viability,SRB,,,,,> 10 µM
COCc1c(C(C)C)nc(C(C)C)c(/C=C/[C@@H](O)C[C@@H](O)CC(=O)O)c1-c1ccc(F)cc1,cell growth,SRB,,72 h,,,44.5 µM
Nc1n[n+]([O-])c2ccccc2[n+]1[O-],cytotoxicity,MTT,,24 h,normoxia,,326 ± 10.8 µM
C=CCc1ccc(OCc2nnc(SCC(=O)Nc3cccc(C)c3)o2)c(OC)c1,cell growth or viability,MTT,,72 h,,,45.9 µM
Cc1nc2ccccc2nc1SCC(=O)Nc1ccc(C(=O)Nc2ccc(O)cc2)cc1,cell growth or viability,MTT,,,,,62.2 µM
CCOc1nc2c(c(-c3ccc(Cl)cc3)c(C#N)c(=O)n2C2CCCCC2)c(=O)[nH]1,cell growth or viability,MTT,,,,,9.6 µM
O=C(CSc1nc2ccccc2c(=O)n1-c1ccc(Cl)cc1)NNC(=O)Nc1ccc(Cl)cc1,cell growth or viability,MTT,,,,,36.3 µM
[O-][n+]1nc(NCCCCCCNc2n[n+]([O-])c3ccccc3[n+]2[O-])nc2ccccc21,cytotoxicity,MTT,10% FBS medium,6 h + 18 h,hypoxia 3% O2,,> 30 µM
Cc1ccc(-n2c(SCC(=O)NNC(=O)Nc3ccc(F)cc3)nc3ccccc3c2=O)cc1,cell growth or viability,MTT,,,,,52.5 µM
N#CC(C(=O)Nc1nnc(NC(=O)c2ccccc2)s1)=C1Nc2ccccc2O1,,,,48 h,,,7.7 ± 0.5 µM

# Excerpt of the above:
SMILES,observed,technique,medium,time,notes,together with,IC50
N#CC(C(=O)Nc1nnc(NC(=O)c2ccccc2)s1)=C1SCCN1c1ccccc1,cell growth or viability,MTT,,48 h,,,36.2 µM
COc1ccc(-n2c(SCC(=O)NNC(=O)Nc3ccc(Cl)cc3)nc3ccccc3c2=O)cc1,cell growth or viability,MTT,,,,,55.5 µM
NCCCCCNc1n[n+]([O-])c2ccccc2[n+]1[O-],cytotoxicity,MTT,10% FBS medium,6 h + 18 h,hypoxia 3% O2,,> 76 µM
CCN1CCC2(CC1)C/C(=N\N=C\c1ccc(N(C)C)cc1)c1ccccc1O2,cell growth or viability,MTT,,48 h,,,80 µM
C=CCc1ccc(O)c(-c2ccc(O)c(CC=C)c2)c1,cell proliferation,MTS,,72 h,,10 µM BLM,2.51 µM
CC(=O)c1nn(-c2ccc(Cl)cc2[N+](=O)[O-])/c(=N/N=C(\C)c2ccc(NC(=O)c3cccnc3)cc2)s1,cytotoxicity,MTT,,24 h,,,10.4 ± 0.8 µM
O=S(=O)(Sc1ccccc1Br)c1ccccc1Br,cell growth,sulforhodamine B,,,,,> 10 µM
